Earlier results that unrelated publications cite.
Each line is one published result; not all experiments were run side by side. ± marks the error that the study gave.

Cc1cn(CC(=O)N(CCNC(=O)CN(CCNC(=O)CN(CCNC(=O)CN(CCNC(=O)CN(CCNC(=O)CN(CCNC(=O)CN(CCNC(=O)CN(CCNC(=O)CN(CCNC(=O)CN(CCNC(=O)COCCOCCNC(=O)COCCOCCNC(=O)[C@H](CNC(=O)[C@H](CNC(=O)[C@H](CNC(=O)[C@H](CNC(=O)COCCOCCNC(=O)CN2CCN(CC(=O)O)CCN(CC(=O)O)CCN(CC(=O)O)CC2)NC(=O)COCCOCCNC(=O)CN2CCN(CC(=O)O)CCN(CC(=O)O)CCN(CC(=O)O)CC2)NC(=O)[C@H](CNC(=O)COCCOCCNC(=O)CN2CCN(CC(=O)O)CCN(CC(=O)O)CCN(CC(=O)O)CC2)NC(=O)COCCOCCNC(=O)CN2CCN(CC(=O)O)CCN(CC(=O)O)CCN(CC(=O)O)CC2)NC(=O)[C@H](CNC(=O)[C@H](CNC(=O)COCCOCCNC(=O)CN2CCN(CC(=O)O)CCN(CC(=O)O)CCN(CC(=O)O)CC2)NC(=O)COCCOCCNC(=O)CN2CCN(CC(=O)O)CCN(CC(=O)O)CCN(CC(=O)O)CC2)NC(=O)[C@H](CNC(=O)COCCOCCNC(=O)CN2CCN(CC(=O)O)CCN(CC(=O)O)CCN(CC(=O)O)CC2)NC(=O)COCCOCCNC(=O)CN2CCN(CC(=O)O)CCN(CC(=O)O)CCN(CC(=O)O)CC2)NC(=O)[C@H](CNC(=O)[C@H](CNC(=O)[C@H](CNC(=O)COCCOCCNC(=O)CN2CCN(CC(=O)O)CCN(CC(=O)O)CCN(CC(=O)O)CC2)NC(=O)COCCOCCNC(=O)CN2CCN(CC(=O)O)CCN(CC(=O)O)CCN(CC(=O)O)CC2)NC(=O)[C@H](CNC(=O)COCCOCCNC(=O)CN2CCN(CC(=O)O)CCN(CC(=O)O)CCN(CC(=O)O)CC2)NC(=O)COCCOCCNC(=O)CN2CCN(CC(=O)O)CCN(CC(=O)O)CCN(CC(=O)O)CC2)NC(=O)[C@H](CNC(=O)[C@H](CNC(=O)COCCOCCNC(=O)CN2CCN(CC(=O)O)CCN(CC(=O)O)CCN(CC(=O)O)CC2)NC(=O)COCCOCCNC(=O)CN2CCN(CC(=O)O)CCN(CC(=O)O)CCN(CC(=O)O)CC2)NC(=O)[C@H](CNC(=O)COCCOCCNC(=O)CN2CCN(CC(=O)O)CCN(CC(=O)O)CCN(CC(=O)O)CC2)NC(=O)COCCOCCNC(=O)CN2CCN(CC(=O)O)CCN(CC(=O)O)CCN(CC(=O)O)CC2)C(=O)Cn2cnc3c(=O)[nH]c(N)nc32)C(=O)Cn2ccc(N)nc2=O)C(=O)Cn2ccc(N)nc2=O)C(=O)Cn2cnc3c(N)ncnc32)C(=O)Cn2cc(C)c(=O)[nH]c2=O)C(=O)Cn2ccc(N)nc2=O)C(=O)Cn2cnc3c(N)ncnc32)C(=O)Cn2cnc3c(=O)[nH]c(N)nc32)C(=O)Cn2ccc(N)nc2=O)CC(=O)NCCN(CC(=O)NCCN(CC(=O)NCCOCCOCC(=O)N[C@@H]2CSSC[C@H](C(N)=O)NC(=O)[C@@H](CCCCN)NC(=O)[C@@H](CO)NC2=O)C(=O)Cn2ccc(N)nc2=O)C(=O)Cn2ccc(N)nc2=O)c(=O)[nH]c1=O  melting temperature (KRAS G12D RNA 20-mer; PNA/RNA duplex): 74.1 ± 1 °C
Cc1cc(O)cc(C)c1C[C@H](N)C(=O)N[C@H](CCCNC(=N)N)C(=O)N[C@@H](Cc1ccccc1)C(=O)N[C@@H](CCCCN)C(N)=O  Ke (delta opioid receptor; muscle contraction, antagonist; mouse vas deferens): inactive
CN1C(=O)CN=C(c2ccccc2)c2cc(Cl)ccc21  ED50 (convulsive seizures; rat lithium-pilocarpine status epilepticus; 0 min after SE onset): 3 mg/kg
CCOP(=O)(OCC)Oc1nc(Cl)c(Cl)cc1Cl  IC50 (neuropathy target esterase (NEST); enzyme activity; 20 min, median of reported values): 200 nM
CCOP(=O)(OCC)Oc1nc(Cl)c(Cl)cc1Cl  IC50 (neuropathy target esterase human; enzyme activity, inhibitor; human brain homogenate; 20 min): 180 nM
COC(=O)[C@@H]1C[C@H](OC(C)=O)C(=O)[C@H]2[C@@]1(C)CC[C@H]1C(=O)O[C@H](c3ccoc3)C[C@]21C  Ki (mu opioid receptor; binding): > 1000 nM
Cc1c(N2CC[C@@H](CN)C2)c(F)cc2c(=O)n(N)c(=O)n(C3CC3)c12  loss of DNA cleavage potency (Escherichia coli gyrase GyrA S83W; reference: wild type over mutant): ~5.6 fold
COc1ccc(CC(C)NCC(O)c2ccc(O)c(NC=O)c2)cc1 (centres unmarked)  residence time (β2-adrenergic receptor, human; binding): 0.33 min
CCCN(CCC)c1c(C#N)cc(S(=O)(=O)Nc2ccccc2)cc1C#N  IC50 (Vero; viability): 16000 ± 1000 nM
CC(=O)SCC[N+](C)(C)C  kcat (acetylcholinesterase 1 (Anopheles gambiae); substrate): 652 s⁻¹
C=C(C)[C@@H]1[C@H]2OC(=O)[C@@H]1[C@]1(O)C[C@H]3O[C@]34C(=O)O[C@H]2[C@]14C  IC50 (GABA-A receptor α1β3γ2; GABA-evoked current, inhibitor, patch clamp; with: GABA EC90): 3700 nM
CNC(=O)Oc1cccc2ccccc12  Ka (acetylcholinesterase 1 (Anopheles gambiae)): 4.7 µM
CCCC(CCC)C(=O)O  convulsive seizure suppression (rat lithium-pilocarpine status epilepticus; 300 mg/kg, 30 min after SE onset): no effect
methylarsonous diiodide  Kd (reduced thiol groups; binding): 13 to 106 nM

Some of these lines once more:
CCOP(=O)(OCC)Oc1nc(Cl)c(Cl)cc1Cl  IC50 (neuropathy target esterase (NEST); enzyme activity; 20 min, median of reported values): 200 nM
